Results of several laboratories.
Every numbered part comes from another study and shows a few of its results, in no order. Changes are numbered by the printed parent chain.

Study 1 — method: protein binding microarray; molecule type: double-stranded DNA, one strand shown; medium: in vitro; concentration: not given; relative to: not given; direction: higher = stronger binding; quantity: E-score
Target: Histone acetyltransferase KAT6A, winged helix 2, GST fusion (KAT6A, Homo sapiens, UniProt Q92794, residues 85-181)
Setting: 8-mer, flanks averaged, mean of 2 arrays, mostly near background
Target sequence (chain): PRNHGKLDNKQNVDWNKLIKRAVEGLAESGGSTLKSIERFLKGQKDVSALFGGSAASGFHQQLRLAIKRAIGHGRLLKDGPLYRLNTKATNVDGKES
Strand = CCTGTCCA; result = -0.275
Strand = ATCAGTCG; result = 0.0759
Strand = CCTACCTC; result = -0.0117
Strand = CCAATCGA; result = -0.0918
Strand = CGTTGCTC; result = 0.101
Strand = ACATCGGG; result = -0.0583
Strand = AGTCGCTC; result = -0.139

Study 2 — target: CCNB2, cyclin fold, Cln2 fusion (human); method: yeast growth competition, sequencing; medium: yeast; setting: weak parent motif; relative to: not given; direction: higher = stronger binding; quantity: normalised enrichment score
Parent: CDC25A docking peptide (human); PPHRRRLLFACSP; partner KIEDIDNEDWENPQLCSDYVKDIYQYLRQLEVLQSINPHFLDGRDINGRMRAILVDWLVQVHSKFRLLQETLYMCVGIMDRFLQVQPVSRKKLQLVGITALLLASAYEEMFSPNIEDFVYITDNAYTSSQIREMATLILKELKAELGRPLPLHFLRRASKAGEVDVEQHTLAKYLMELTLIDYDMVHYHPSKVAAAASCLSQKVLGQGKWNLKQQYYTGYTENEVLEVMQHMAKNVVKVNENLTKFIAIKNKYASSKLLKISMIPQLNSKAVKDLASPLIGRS
Variant = L8M; result = 0.41
Variant = P1L; result = 0.502
Variant = H3W; result = 1.26
Variant = R6V; result = 0.489
Variant = R4I; result = 1.12

Study 3 — method: protein-binding microarray; molecule type: double-stranded DNA, one strand shown; medium: in vitro; concentration: not given; direction: higher = stronger binding; quantity: E-score
Target: Hepatocyte nuclear factor 3-beta, forkhead domain (FOXA2, Homo sapiens, UniProt Q9Y261, residues 142-269)
Setting: k-mer, scored over probes, only values ≥0.25
Target sequence (chain): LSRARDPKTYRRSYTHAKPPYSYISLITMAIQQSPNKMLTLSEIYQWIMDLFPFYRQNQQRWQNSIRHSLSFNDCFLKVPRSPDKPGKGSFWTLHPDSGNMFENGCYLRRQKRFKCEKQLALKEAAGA
Strand = TATCCAAA; result = 0.326
Strand = CATAATTA; result = 0.353
Strand = ATCATAGC; result = 0.25
Strand = AGTTAGTA; result = 0.251
Strand = GTTGTTAA; result = 0.31
Strand = GTACGTTA; result = 0.268
Strand = ATTGTTAC; result = 0.393

Single results of other studies
Substance = PhoQ, residues 284 288 289 292 302 303 HSYLQF; target = PhoP, residues 12 14 15 18 19 QWHVF (Escherichia coli, UniProt P23836); test = Sort-seq, measured: YFP reporter; system = E. coli; conditions = PhoQ-PhoP variant library, together with: 10 µM Mg2+; how to read = relative to: high Mg2+ state, higher = stronger signaling; quantity = fold induction; result = 3.91

Repeated from above (study 3):
Strand = CATAATTA; result = 0.353
Strand = ATCATAGC; result = 0.25
